Experimental data gathered from unrelated publications.
A part holds a random share of what one study measured. Changes are numbered by the printed parent chain.

Study 1 — target: CCNB2, cyclin fold, Cln2 fusion (human); technique: yeast growth competition, sequencing; medium: yeast; setting: weak parent motif; baseline: not given; reading: higher = stronger binding
Starting sequence: CDC6 docking peptide (human); TLKGRRLVFDNQL
Variant	normalised enrichment score
TCKGRRLVFDNQL [L2C]	0.0611
TLKGRRLVFDNNL [Q12N]	-0.254
TLKGRRLVYDNQL [F9Y]	0.551
TLKGRRLRFDNQL [V8R]	0.452
TLKPRRLVFDNQL [G4P]	0.783
TLKGRRLVFDNQQ [L13Q]	0.0752
TLKGRRLMFDNQL [V8M]	-0.0295
TLKGRRYVFDNQL [L7Y]	0.581
TLVGRRLVFDNQL [K3V]	0.629
TLKGRRLVFDYQL [N11Y]	0.238
TLKGRRLVFDNQS [L13S]	0.276
TLMGRRLVFDNQL [K3M]	0.224
TLKGRRLVFQNQL [D10Q]	0.461
TLKGRRTVFDNQL [L7T]	-0.143
TLKGRRFVFDNQL [L7F]	0.12
TLKGRTLVFDNQL [R6T]	0.36
TLKGRRLTFDNQL [V8T]	0.28
TLKGRRLVRDNQL [F9R]	0.335
TLKGRRLVFDDQL [N11D]	-0.0989
TLKGQRLVFDNQL [R5Q]	-0.569
TQKGRRLVFDNQL [L2Q]	-0.225
TLKGRRLVCDNQL [F9C]	0.0427
TLKGRRLVFDNQI [L13I]	0.129
TLLGRRLVFDNQL [K3L]	0.679
TLKGRRLVFDNQG [L13G]	-0.0513

Study 2 — technique: RNA Bind-n-Seq; molecule type: RNA; medium: in vitro; tested at: 365 nM; baseline: no-protein control; reading: higher = stronger binding
Target: RNA binding protein fox-1 homolog 2, RRM domain, GST-SBP tag (RBFOX2, Homo sapiens, UniProt O43251-10, residues 100-194)
Setting: natural RNA segment, single round, ends assumed
Shared flanks, not repeated: GGGAGUUCUACAGUCCGACGAUC … UGGAAUUCUCGGGUGCCAA
Residues (chain): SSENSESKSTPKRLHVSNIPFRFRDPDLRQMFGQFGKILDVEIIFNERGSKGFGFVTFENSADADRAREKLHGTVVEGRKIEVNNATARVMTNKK
Strand	RBNS enrichment (R)
UGCCACAUUCAGCCCUGCCCAGGAAGGAACACAUGACCCUUCUGUCUGUGACUGUUGCUGAGUCUCUGUCUCAUGUCGUAGAAUUGUGGAUAAUUGUCUAGUGACCCUCU	0.251
UUUAUUUGUAUGUCAGUAUUUUUCAUUUGAUUCCCUAUUAGAAUUAAUUUUAAAACUUGAAGACUUCCAGACUUAUCCAACUUAUAAAUAACAUAUUUCUUCAGACUAAC	0.659
GGAGGCGAGAGGAAGGGGAGAACUUGGAGAAUAGUUUUUGCUUUGGGGGUAGAGGCUUCUUAGAUUCUCCCAGCAUCCGCCUUUCCCUUUAGCCAGUCUGCUGUCCUGAA	1.41
CAACAGCAGGGACUGAGACCUUUCUCUGUGCCACUCUCCUCACUGGGGCUCUGCCAUGUUACACUAAUUUGAAUAAGCUCUCCCUUUUUCUGUAGAGUUCCCAGCCUCAG	0.574
AUUGGGUAAUAACUUCAAGAGGAAUGAGAAGUGACAAAAUUGAUUUAAAAUAUUGUUCUACUUAUAAAUAAAUGCUUGAUAUAAAAAAUUUUCUCCAUAAAGUUUGACAU	1.27
UUUUUGGACUUUGUAUUUUACUGCAUGUUUUCUUCAUUUUUAAUCAAUAAAGAGUAAAUUGUCCUUAGUGGUGUAUGGACGCUUUAUUUUAGUGGCCGUUGGCGGAGAGC	18.1
AGGCUCCUGAGCCAGUCAGGCGGAGUUCAAGUGAUAUCUUGGGACAGUGACCAUGGUCUGCAUUACUUGGGGGAGGAUGGGGUACAAGACACCAGAUCAUUUUUAUACAG	0.631
AAGUAGCUCAGAAAUUAAGAAAGAAUGGUAUAAUGAACCCCCAUAUACCCUUCCUUCUGGAUUCACCAAUUGUUAACAUUUUUUUCCUCUCAGCUAUCCUUCUAAUUUCU	0.576

Study 3 — technique: protein-binding microarray; molecule type: double-stranded DNA, one strand shown; medium: in vitro; tested at: 2200 nM top; setting: 60-bp whole probe; together with: salmon DNA 0.4 mg/ml; baseline: random background probes; reading: higher = stronger binding; shared flanks, not repeated: GCCTAGCAC … GTCTTGATTCGCTTGACGCTGCTG
Target: Interferon regulatory factor 7, full length, phosphomimetic (IRF7, Homo sapiens, UniProt Q92985, residues 1-503, S471D/S472D/S475D/S476D/S477D/S483D/S484D/S487D)
Construct (chain): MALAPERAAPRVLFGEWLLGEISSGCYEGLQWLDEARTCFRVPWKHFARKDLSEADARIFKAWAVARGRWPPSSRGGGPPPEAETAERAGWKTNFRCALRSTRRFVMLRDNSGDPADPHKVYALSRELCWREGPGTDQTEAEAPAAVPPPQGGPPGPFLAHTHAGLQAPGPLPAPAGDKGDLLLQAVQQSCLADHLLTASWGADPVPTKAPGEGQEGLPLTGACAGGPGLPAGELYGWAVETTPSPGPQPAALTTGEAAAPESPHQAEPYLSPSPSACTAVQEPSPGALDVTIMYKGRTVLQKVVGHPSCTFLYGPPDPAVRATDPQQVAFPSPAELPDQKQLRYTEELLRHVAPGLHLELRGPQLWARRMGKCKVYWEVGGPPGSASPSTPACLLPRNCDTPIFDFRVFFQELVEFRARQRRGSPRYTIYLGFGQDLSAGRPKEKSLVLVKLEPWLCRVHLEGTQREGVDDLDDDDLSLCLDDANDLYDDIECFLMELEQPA
Strand	fitted relative affinity [z-score]
TCATATTTGTCCCTATTACTGTGCTAG	2.4
GACGGTTTCGACTATCGGCACGTGCTA	3.33
GACGATCTGAGTATCGAGACGTGCTAG	0.00578
TTAGGTTTAGGGACTGGGTTAGTGCTA	-0.393
TTAGGTGTCCTTTCCCTTTAGTGCTAG	2.4
TTAGATTTCGGGTCTCGATTAGTGCTA	3.82
GACGGTTTAGGGTTTCGGGACGTGCTA	1.95
TTAGGACTGGACTTGCGGTTAGTGCTA	-0.163
TTAGGACTGCATCTCCTTTAGTGCTAG	0.454
TCATAACTCATTCTCCAACTGTGCTAG	1.37
GACGAACTGGTGTTTCGAGACGTGCTA	1.01
GGCGGTCTCGGTCTCGGGACGTGCTAG	-0.623
GATGGTTTCGACACTGGGGACGTGCTA	2.6
TAAGGTTTCGGTTTCGGTTAGTGCTAG	17
GACGAGATCAGTTTCGAGACGTGCTAG	3.28
CCAGGGCTCTAGAGAAATAGGTGCTAG	-1.32
TTAGATTTCAGACTGGATCAGTGCTAG	-0.14
TCACATTGCCTGTTTTTCACTGTGCTA	2.29
TTAGGTATCGGTATGGGTTAGTGCTAG	0.704

Study 4 — technique: RNA Bind-n-Seq; molecule type: RNA; medium: in vitro; tested at: 200 nM; setting: whole 134-nt RNA, ends assumed; together with: 150 mM LiCl; baseline: input library; reading: higher = stronger binding; library: 7-deaza-guanosine replaces G
Target: Ras GTPase-activating protein-binding protein 1, full length (G3BP1, Homo sapiens, UniProt Q13283)
Sequence of UniProt Q13283 (whole entry, looked up): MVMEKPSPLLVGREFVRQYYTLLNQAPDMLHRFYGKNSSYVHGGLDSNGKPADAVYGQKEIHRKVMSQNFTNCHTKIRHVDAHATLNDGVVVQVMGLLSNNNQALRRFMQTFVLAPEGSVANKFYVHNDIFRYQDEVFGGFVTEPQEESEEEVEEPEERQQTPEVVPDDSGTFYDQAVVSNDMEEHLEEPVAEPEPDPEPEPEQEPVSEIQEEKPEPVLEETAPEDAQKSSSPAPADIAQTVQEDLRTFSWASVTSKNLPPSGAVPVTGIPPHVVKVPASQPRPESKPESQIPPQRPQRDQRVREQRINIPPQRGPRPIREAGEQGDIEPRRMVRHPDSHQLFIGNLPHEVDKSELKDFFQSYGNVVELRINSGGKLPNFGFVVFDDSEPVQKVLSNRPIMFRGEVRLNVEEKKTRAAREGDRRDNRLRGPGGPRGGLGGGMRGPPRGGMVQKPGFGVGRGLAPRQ
Shared flanks, not repeated: GGGAGUUCUACAGUCCGACGAUC … UGGAAUUCUCGGGUGUCAAGG
Strand	log2 enrichment
GCAGGAAGUAAAAACAAAUGGAAAUGCUUCGGAUAGUGGCAGGGGUGGGGGUUGCUAAGGAAAGGGUGGGAUGGGAGUGGGAAAAGAGUU	0.395
CAAGUCCUGUGCUACACAUCGUAUGUACCGAAUCGGGAAAGGGAAAGGGUUUGGGAAAGUAUUAUGUUACGCCGUUCGGAUCUGCACUUC	-0.946
UAACUUUAGAGGAGGAUCUGAUGGAUAUGGCGGUGGACGUGGAUUUGGGGAUGGCUAUAAUGGGUAUGGAGGAGGACCUGGAGGUGGCAA	-0.083
CCUGUGCUACACAUCGUAUGUACCGAAUCGGGCCCCCCGGGGCCCCCCGGCCCCCCGGGGAAAGUAUUAUGUUACGCCGUUCGGAUCUGC	-1.99
UAACUUUAGAGGAGGAUCUGAUGGAUAUGGCAGUGGACGUGGAUUUGGGGAUGGCUAUAUUGGGUAUGGAGGAGGACCUGGAGGUGGCAA	-0.23
GCAGGAAGUAAAAACAAAUGGAAAUGCUUCGGAUAGUGUCAGGGGUGGGGGUUGCUAAGGAAAGGGUGGGAUGGGAGUGGGUAAAGAGUU	0.211
GCAGGAAGUAAAAACAAAUGGAAAUGCUUCGGAUAGUGGCAGGGGUGGGGGUUGCUAAGGAAAGGGUGGGAUGGGCGUGGGUAAAGAGUU	0.25
CAAGUCCUGUGCUACACAUCGUAUGUACCGAAUCGGUUUGGAAAAAGGAAAAAGGAAAGUAUUAUGUUACGCCGUUCGGAUCUGCACUUC	-0.927

Excerpt of the above (study 2):
Strand	RBNS enrichment (R)
CAACAGCAGGGACUGAGACCUUUCUCUGUGCCACUCUCCUCACUGGGGCUCUGCCAUGUUACACUAAUUUGAAUAAGCUCUCCCUUUUUCUGUAGAGUUCCCAGCCUCAG	0.574
GGAGGCGAGAGGAAGGGGAGAACUUGGAGAAUAGUUUUUGCUUUGGGGGUAGAGGCUUCUUAGAUUCUCCCAGCAUCCGCCUUUCCCUUUAGCCAGUCUGCUGUCCUGAA	1.41
AGGCUCCUGAGCCAGUCAGGCGGAGUUCAAGUGAUAUCUUGGGACAGUGACCAUGGUCUGCAUUACUUGGGGGAGGAUGGGGUACAAGACACCAGAUCAUUUUUAUACAG	0.631
AUUGGGUAAUAACUUCAAGAGGAAUGAGAAGUGACAAAAUUGAUUUAAAAUAUUGUUCUACUUAUAAAUAAAUGCUUGAUAUAAAAAAUUUUCUCCAUAAAGUUUGACAU	1.27
